Results of several laboratories.
Compare with care: the assays were run in different laboratories. Numbers after ± are the reported error.
SLC10A1: Hepatic sodium/bile acid cotransporter (SLC10A1, Homo sapiens, UniProt Q14973)
UniProt Q14973, sequence (whole entry, looked up): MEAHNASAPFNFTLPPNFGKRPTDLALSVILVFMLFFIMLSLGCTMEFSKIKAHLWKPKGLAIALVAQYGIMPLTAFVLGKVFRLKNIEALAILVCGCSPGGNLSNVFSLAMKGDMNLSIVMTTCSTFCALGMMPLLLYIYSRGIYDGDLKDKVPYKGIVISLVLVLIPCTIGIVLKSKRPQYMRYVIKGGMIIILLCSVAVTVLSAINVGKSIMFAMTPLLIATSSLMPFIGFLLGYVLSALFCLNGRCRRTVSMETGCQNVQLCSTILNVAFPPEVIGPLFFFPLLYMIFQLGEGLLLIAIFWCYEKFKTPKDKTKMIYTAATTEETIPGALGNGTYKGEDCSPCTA
Cyp2b1: Cytochrome P450 2B1 (Cyp2b1, Rattus norvegicus, UniProt P00176)
UniProt P00176, sequence (whole entry, looked up): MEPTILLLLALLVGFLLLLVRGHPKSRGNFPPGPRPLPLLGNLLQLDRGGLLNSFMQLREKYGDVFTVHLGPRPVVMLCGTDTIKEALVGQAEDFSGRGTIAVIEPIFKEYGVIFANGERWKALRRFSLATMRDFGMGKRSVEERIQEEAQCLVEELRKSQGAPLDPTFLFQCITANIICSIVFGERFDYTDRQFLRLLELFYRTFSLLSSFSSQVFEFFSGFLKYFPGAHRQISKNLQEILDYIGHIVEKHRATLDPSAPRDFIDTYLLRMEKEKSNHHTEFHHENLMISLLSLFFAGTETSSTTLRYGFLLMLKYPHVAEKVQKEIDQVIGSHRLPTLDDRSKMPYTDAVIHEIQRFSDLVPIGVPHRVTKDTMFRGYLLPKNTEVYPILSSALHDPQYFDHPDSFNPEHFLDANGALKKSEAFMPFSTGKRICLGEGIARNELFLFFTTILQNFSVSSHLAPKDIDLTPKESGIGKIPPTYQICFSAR
UniProt P31391, sequence (whole entry, looked up): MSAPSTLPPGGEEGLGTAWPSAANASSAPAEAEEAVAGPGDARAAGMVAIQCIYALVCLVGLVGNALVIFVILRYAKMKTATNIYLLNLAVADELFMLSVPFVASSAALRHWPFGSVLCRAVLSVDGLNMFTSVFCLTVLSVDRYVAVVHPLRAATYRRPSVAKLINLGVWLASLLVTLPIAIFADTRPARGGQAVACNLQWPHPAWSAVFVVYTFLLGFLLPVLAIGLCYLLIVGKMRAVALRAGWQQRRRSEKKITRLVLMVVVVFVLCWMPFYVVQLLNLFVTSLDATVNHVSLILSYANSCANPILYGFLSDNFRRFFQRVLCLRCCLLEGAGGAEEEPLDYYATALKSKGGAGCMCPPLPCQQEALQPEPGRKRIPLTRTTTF
UniProt O15379, sequence (whole entry, looked up): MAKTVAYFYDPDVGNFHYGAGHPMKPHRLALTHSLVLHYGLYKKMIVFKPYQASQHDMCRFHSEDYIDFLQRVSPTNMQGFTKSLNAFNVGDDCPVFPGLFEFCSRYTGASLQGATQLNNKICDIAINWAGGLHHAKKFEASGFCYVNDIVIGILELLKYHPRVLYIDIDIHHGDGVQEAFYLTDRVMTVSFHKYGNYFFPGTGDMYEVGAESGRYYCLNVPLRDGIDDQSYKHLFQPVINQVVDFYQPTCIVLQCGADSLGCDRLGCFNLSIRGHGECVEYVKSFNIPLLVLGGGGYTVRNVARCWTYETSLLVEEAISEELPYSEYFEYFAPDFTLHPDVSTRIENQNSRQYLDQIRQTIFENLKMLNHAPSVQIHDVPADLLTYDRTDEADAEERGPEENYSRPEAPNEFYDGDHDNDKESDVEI
UniProt Q16774, sequence (whole entry, looked up): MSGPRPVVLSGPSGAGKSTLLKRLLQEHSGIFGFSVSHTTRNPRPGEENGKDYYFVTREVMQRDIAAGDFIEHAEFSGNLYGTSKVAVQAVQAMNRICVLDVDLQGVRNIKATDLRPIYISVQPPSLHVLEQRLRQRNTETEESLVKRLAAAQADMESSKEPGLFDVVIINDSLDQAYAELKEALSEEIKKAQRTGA

Structure (SMILES)	target	assay	test system	conditions	Ki [µM]
COc1ccc2c(c1)c(CC(=O)O)c(C)n2C(=O)c1ccc(Cl)cc1	SLC10A1	taurocholate uptake, inhibitor	NTCP-expressing HEK293	together with: 10 µM taurocholate	141 ± 14
C#Cc1ccc2c(=O)cc(-c3ccccc3)oc2c1	Cyp2b1	fluorimetric PROD	recombinant supersomes	6 min, pH 7.6, together with: pentoxyresorufin	> 25
O=C(NO)c1cncc(OS(=O)(=O)Oc2ccc(-n3ccnc3)cc2)c1	Histone deacetylase 3, with NCoR2 DAD (HDAC3, Homo sapiens, UniProt O15379)	enzyme activity, inhibitor, fluorogenic	–	–	0.405
CCOc1cc(-c2nncn2C)ccc1Nc1ncc2cc(C)nc(NCC(C)(C)C)c2n1	CDK2 (Homo sapiens, UniProt P24941)	–	–	–	0.051
C#Cc1cccc(-c2cc(=O)c3ccccc3o2)c1	Cyp2b1	fluorimetric PROD	recombinant supersomes	6 min, pH 7.6, together with: pentoxyresorufin	> 25
CNC(=C[N+](=O)[O-])NCCSCc1csc(CN(C)C)n1	SLC10A1	taurocholate uptake, inhibitor	NTCP-expressing HEK293	together with: 10 µM taurocholate	929 ± 3320
C#Cc1ccc(-c2cc(=O)c3ccccc3o2)cc1	Cyp2b1	fluorimetric PROD	recombinant supersomes	6 min, pH 7.6, together with: pentoxyresorufin	> 25
CCN(CC)CCCC(C)Nc1ccnc2cc(Cl)ccc12 (stereo not drawn)	SLC10A1	taurocholate uptake, inhibitor	NTCP-expressing HEK293	together with: 10 µM taurocholate	336 ± 101
Nc1nc2c(ncn2[C@@H]2O[C@H](COP(=O)(O)O)[C@@H](O)[C@H]2O)c(=O)[nH]1	GUK1 (Homo sapiens, UniProt Q16774)	substrate inhibition, NADH-coupled	–	KCl 50 mM	3870
COc1cc2nc(N3CCN(C(=O)C4COc5ccccc5O4)CC3)nc(N)c2cc1OC (stereo not drawn)	SLC10A1	taurocholate uptake, inhibitor	NTCP-expressing HEK293	together with: 10 µM taurocholate	41.2 ± 7.1
C#Cc1ccc2cc(-c3ccccc3)c(=O)oc2c1	Cyp2b1	fluorimetric PROD	recombinant supersomes	6 min, pH 7.6, together with: pentoxyresorufin	> 25
O=c1n(CCCN2CCN(c3cccc(Cl)c3)CC2)nc2ccccn12	SSTR4 (Homo sapiens, UniProt P31391)	–	–	–	> 10

Some of these lines once more:
Structure (SMILES)	target	assay	test system	conditions	Ki [µM]
C#Cc1cccc(-c2cc(=O)c3ccccc3o2)c1	Cyp2b1	fluorimetric PROD	recombinant supersomes	6 min, pH 7.6, together with: pentoxyresorufin	> 25
CNC(=C[N+](=O)[O-])NCCSCc1csc(CN(C)C)n1	SLC10A1	taurocholate uptake, inhibitor	NTCP-expressing HEK293	together with: 10 µM taurocholate	929 ± 3320
